# Published values of several laboratories.
# Every numbered part comes from another study and shows a few of its results, in no order. Substitutions count along the parent as printed.

# Sample 1 — method: RNA Bind-n-Seq; molecule type: RNA; medium: in vitro; concentration: 365 nM; reference: no-protein control; reading: higher = stronger binding
# Target: RNA binding protein fox-1 homolog 2, RRM domain, GST-SBP tag (RBFOX2, Homo sapiens, UniProt O43251-10, residues 100-194)
# Notes: natural RNA segment, single round, ends assumed
# Constant ends, left off below: GGGAGUUCUACAGUCCGACGAUC … UGGAAUUCUCGGGUGCCAA
# Target sequence (chain): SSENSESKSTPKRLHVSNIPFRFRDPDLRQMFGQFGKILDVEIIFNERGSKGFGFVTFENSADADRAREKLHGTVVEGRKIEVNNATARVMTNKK
Strand,RBNS enrichment (R)
UGAGGCCAUCUGAGCCUCCAGACCAGACCCCAAACCAGCCCUUGAGUCUGUCACACUCUCUUGGGCCAGCCCCAGCACCUCAUGCAGAGGGUGGGGUACUGGAGUUAGAU,0.242
GUAAAUAUUUUCACCACGAUCGAUUAGACUGGGAUGAACACAGUUCUGCCGGCAGAUAUGUUUCAAGACGCUGUAAACCUCUGAAGGAAUUUAUGCUUUCUCAAGAUGUU,0.398
CUGUAGCUGCCGAACCAGUAGCUCCUAAGAGCACAACCCAGGAUGGCCCAUCUGCUGCCCACCAAGUCCCUUUCCAGCCACUGUGUGCUGGGGGCUUUCGGGGGCAGUUG,0.248
GAGAUCUCUGAAGUGGGAUUGUCUUAUUUUCCUUAGUACAGCCCACUGCCAAAAAGCUUCCUCUGAUGUCAAAUCAGGAUGUAUUACCGAAACUGAUUCCAAGGACAUCC,0.25
CUUUAGAGGUGGUGGCAGCGGCAGCAGGUCAGAGCCACUUCUGGCGGUUUCCCUCCCCUUUUUAGUGCCCAUAGUUUUUGGAUCCUCCCUUGAGUUUUACCAGCACAAGC,0.456
UGGCACCCAGAGCUUCUGUUAACUUGAGCCGGGAGCUGGGUUCUUUAGCAAGAUGAGCUUCUGGGGUCCUUAUGUUGGUAAUGGUGCCAUGUCCAGACCCACAGCAGAGU,0.62
AAUAUUCAAACACUUUUGUGGCAUACAAAGUAAAAAAAAAAAGUGUAUCUGAGAAACUAAACAUGUAUUAAAUGUGCUUUUUAAAUAAAAGCUCAUAACACAACUAACCA,0.887
CUGUGACGAGGAACUGCCAUUGCAGGGUCAAUCACCAGGCACUUGCACAUGUAGAAACCUGUAGACUUUGGUUACUGCUAUAUUCCCCUUGAGAUCCUUGCUGGAUGCCG,0.689
AGCAGAGAGAGCCCAUCUGCAGAAACCCAGUUGUACUACCUGGGCUUGCUUAAUUUCUACAGGCUGUCUUGUCUUUCAUAUGCUAACCACUAUCUUAAAAUGAAAGACAA,0.44
UUUUUUUUUUUUAAACUUUGCCUUCCUGGACAACUUAAGGUGUGUCUCUUAAUUCUCUCUUACAGUAUUUGUUUACUUUGGAUUUUUGUUUUUAAUCUCAAAAGAGAGAG,0.644
CCUAUACCUGCCCAGGACAUCUUAAUAACCCCAGGGCUGGGGACUCCAUGGCCACACUCCUGUGAAUGGGUAUCGGGGAGUUAGGAUCUUUCUUCUCCCAAUGCCUCUUG,0.702
CAUGAAUGCAUCGUCCCUUUAUCUGUAAGAACCCUUAGUGUCCUGUAGGGGGACAGAAUGGGGUGGCCAGGUGGUGAUUUCUCUUUGACCAAUGCAUAGUUUGGCAGAAA,13

# Sample 2 — method: Sort-seq; item: YFP reporter; medium: E. coli; notes: PhoQ-PhoP variant library; with: 10 µM Mg2+; reference: high Mg2+ state; reading: higher = stronger signaling
# Substance: PhoQ, residues 284 288 289 292 302 303 SNSSNI
target,fold induction
"PhoP, residues 12 14 15 18 19 STHWV (Escherichia coli, UniProt P23836)",2.22
"PhoP, residues 12 14 15 18 19 QYCSL (Escherichia coli, UniProt P23836)",10.4
"PhoP, residues 12 14 15 18 19 SHWTV (Escherichia coli, UniProt P23836)",1.14

# Sample 3 — method: RNAcompete; molecule type: RNA; medium: in vitro; concentration: 20 nM; notes: 7-mer, probes averaged, single round; reference: mean of 7-mers; reading: higher = stronger binding
# Target: PABPC1L2, full length, GST fusion (mouse, UniProt A0ABA7IW68)
# Residues (chain): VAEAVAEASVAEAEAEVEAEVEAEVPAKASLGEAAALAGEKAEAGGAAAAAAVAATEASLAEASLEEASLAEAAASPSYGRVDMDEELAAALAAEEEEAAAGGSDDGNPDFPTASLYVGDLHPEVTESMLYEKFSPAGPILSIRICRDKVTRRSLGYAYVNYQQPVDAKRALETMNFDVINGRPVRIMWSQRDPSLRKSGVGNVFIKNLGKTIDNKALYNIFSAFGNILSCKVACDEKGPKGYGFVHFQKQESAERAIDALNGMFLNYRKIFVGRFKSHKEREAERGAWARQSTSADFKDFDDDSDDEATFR
Strand,7-mer Z-score
UAUGUUA,-0.17
GGUUAUG,-0.0192
UCGCCUC,-0.507
AAGGUCG,0.0678
GCCUAUG,-0.193
GGAGCUG,0.166
GAUAUCA,-0.179
UAGGGUG,0.108
CCGCGUC,-0.436
GUGCCCC,-0.191
GCUCGAA,-0.104
CCUCAAA,0.229

# Sample 4 — method: protein binding microarray; molecule type: double-stranded DNA, one strand shown; medium: in vitro; concentration: not given; reference: not given; reading: higher = stronger binding
# Target: Histone acetyltransferase KAT6A, winged helix 2, GST fusion (KAT6A, Homo sapiens, UniProt Q92794, residues 85-181)
# Notes: 8-mer, flanks averaged, mean of 2 arrays, mostly near background
# Construct (chain): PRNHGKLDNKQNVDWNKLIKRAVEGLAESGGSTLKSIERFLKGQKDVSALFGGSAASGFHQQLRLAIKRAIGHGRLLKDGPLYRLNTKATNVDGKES
Strand,E-score
AACTGCTG,0.0819
CTCTGTAA,0.0548
ACTCAGTG,0.0473
TGGAGACA,-0.0503
ACTCGGCT,-0.0428
ATCGCGAA,0.164
TATAGGCA,-0.0492
CTTAGGGA,-0.159
GCTCGTAC,-0.0719
TGGGATAA,0.000275
AGTTTAAT,0.0914
CCCGGCTA,0.193
GGCATACC,0.000495
AAGATGAA,-0.0448
CATACGCA,0.0746
CGAAACGC,0.0206
AACAATGG,-0.0478
AGTAAAAT,0.198
CGGGAGAC,0.0771
AGTTCCGC,0.119
GGAGCACC,0.0862
TCTAAGCA,-0.113
AAGGGGAT,-0.106
ATCCCTAA,-0.143
CACTGACA,0.04

# Sample 5 — method: DHFR PCA, deep sequencing; medium: yeast; with: (+)-ABA 58 µM; reference: wild-type fitted maximum; reading: higher = stronger binding
# Target: ABI1, truncated, D143A, DHFR fusion (Arabidopsis thaliana)
# Notes: methotrexate growth selection, single substitutions
# Parent: PYL1, truncated, DHFR fusion (Arabidopsis thaliana); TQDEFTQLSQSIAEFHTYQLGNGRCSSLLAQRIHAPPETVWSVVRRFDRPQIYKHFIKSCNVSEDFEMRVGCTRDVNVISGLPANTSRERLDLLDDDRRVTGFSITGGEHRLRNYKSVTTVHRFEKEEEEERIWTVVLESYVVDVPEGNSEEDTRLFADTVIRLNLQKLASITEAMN
Variant,relative binding score [%]
E109H,75
A170T,69.9
S27T,42.1
F157R,0.18
C25M,61.4
V145E,5.16
F124K,59.1
D48K,0.391
S140E,-1.92
N177H,87.1
T119K,4.92
G108V,-6.04
E127I,89.7
L8V,73
D3P,84.2
S104Y,12.3
A158T,87.5

# Sample 6 — method: universal PBM; molecule type: double-stranded DNA, one strand shown; medium: in vitro; concentration: not given; reading: higher = stronger binding
# Target: Sal-like protein 4, full length isoform B (SALL4, Homo sapiens, UniProt Q9UJQ4-2, residues 1-616)
# Notes: 8-mer, flanks averaged, mean of replicates
# Construct (chain): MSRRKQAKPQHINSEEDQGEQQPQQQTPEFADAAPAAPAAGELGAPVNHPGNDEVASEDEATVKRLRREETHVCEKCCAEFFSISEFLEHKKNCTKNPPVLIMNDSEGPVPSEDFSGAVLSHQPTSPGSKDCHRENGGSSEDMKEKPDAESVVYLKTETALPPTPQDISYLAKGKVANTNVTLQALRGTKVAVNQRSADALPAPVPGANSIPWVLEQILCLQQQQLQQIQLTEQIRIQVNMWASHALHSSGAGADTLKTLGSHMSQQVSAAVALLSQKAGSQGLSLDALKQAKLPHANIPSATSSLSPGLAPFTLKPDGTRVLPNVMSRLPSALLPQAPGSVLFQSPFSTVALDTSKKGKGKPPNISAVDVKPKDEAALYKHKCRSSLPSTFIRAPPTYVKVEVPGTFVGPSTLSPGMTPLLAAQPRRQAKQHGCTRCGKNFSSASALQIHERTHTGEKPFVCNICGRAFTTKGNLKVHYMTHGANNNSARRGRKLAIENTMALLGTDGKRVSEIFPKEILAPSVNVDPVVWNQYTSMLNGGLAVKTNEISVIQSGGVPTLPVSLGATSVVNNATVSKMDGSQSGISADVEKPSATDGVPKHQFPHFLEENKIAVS
Strand,E-score
GGCGCAAA,-0.185
AAAAGAGA,0.132
CCAATCGC,-0.0954
ATTCCCCA,-0.0842
ATCATCCC,0.147
AGCCATTG,0.029
CTTTCTGC,-0.0997
CGCTATTA,0.168
CAGGCGCG,-0.28
GCCAGCTA,-0.22
CTGCGGCC,-0.436
AATCGATT,0.149
AACATCCA,-0.00305
TGCCCACA,-0.353
CCACATGC,0.138
AACCCCTA,-0.132
ACAACTTA,0.166
GGAAATTA,0.29
AGCTCATC,-0.223
GATCTTCC,-0.217
GACTTAAA,0.115
CCAGTTGA,-0.146
TAGGTACA,0.0932
CTCCATGA,-0.00144

# Sample 7 — target: CCNB1, cyclin fold, Cln2 fusion (human); method: yeast growth competition, sequencing; medium: yeast; notes: strong parent motif; reference: not given; reading: higher = stronger binding
# Parent: PKN2 docking peptide (human); VSAVRKLDFSDTM; partner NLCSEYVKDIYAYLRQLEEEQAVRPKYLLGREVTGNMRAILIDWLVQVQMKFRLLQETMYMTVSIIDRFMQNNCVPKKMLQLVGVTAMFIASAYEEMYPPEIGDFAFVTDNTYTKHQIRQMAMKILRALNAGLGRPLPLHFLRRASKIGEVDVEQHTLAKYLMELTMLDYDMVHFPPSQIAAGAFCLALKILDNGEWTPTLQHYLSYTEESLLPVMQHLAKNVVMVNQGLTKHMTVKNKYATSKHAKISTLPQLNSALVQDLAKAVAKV
Variant,normalised enrichment score
VSQVRKLDFSDTM [A3Q],0.402
VSAVRKLTFSDTM [D8T],2.34
VSAVRKLFFSDTM [D8F],1.86
VSAMRKLDFSDTM [V4M],1.25
VSAVRKLDFSCTM [D11C],2.94
VSGVRKLDFSDTM [A3G],0.684
VSAVRKLDFSDQM [T12Q],3.69
VSAVRKVDFSDTM [L7V],0.151
VSAVRKLKFSDTM [D8K],1.48
VSAVRKLDTSDTM [F9T],0.168
VSAVRVLDFSDTM [K6V],1.89
VSMVRKLDFSDTM [A3M],2.72
VCAVRKLDFSDTM [S2C],3.59
VQAVRKLDFSDTM [S2Q],3.52
VSAVRSLDFSDTM [K6S],2.25
VWAVRKLDFSDTM [S2W],3.42
VSAVRKLDFSYTM [D11Y],2.17
VSAHRKLDFSDTM [V4H],0.552
VSAVRKLDFSDYM [T12Y],3.62
VSAVRKKDFSDTM [L7K],0.278
VSAVRKLDFSKTM [D11K],1.98
VSAVRKLDFSITM [D11I],2.23
VVAVRKLDFSDTM [S2V],2.16
VSAVRKLDFGDTM [S10G],3.98
VSAVRKLDFSDMM [T12M],3.31

# Sample 8 — method: aptamer microarray, sandwich; molecule type: DNA with 2'F-ANA; medium: in vitro; concentration: 200 nM; with: Cy3 exosite-II aptamer, 400 nM; reading: higher = stronger binding; strand: GGTTGGTGTGGTTGG
# Target: Prothrombin, mature alpha-thrombin (F2, Homo sapiens, UniProt P00734)
# Notes: whole 15-mer aptamer, many near background
Modification,mean fluorescence intensity [a.u.]
2'F-ANA at 2 3 5 6 7 9 14,46
2'F-ANA at 1 8 10 11 13 15,52
2'F-ANA at 2 4 5 6 9 10 11 13 15,53.1
2'F-ANA at 2 3 4 5 8 9 12 15,224
2'F-ANA at 1 3 5 6 9 10 11 14,48.9
2'F-ANA at 2 5 6 7 8 12 15,166
2'F-ANA at 2 6 10 11,144
2'F-ANA at 4 5 6 8 9 13,51
2'F-ANA at 3 4 6 7 11 12 13 15,551
2'F-ANA at 1 4 7 9 10 13 15,47.4
2'F-ANA at 1 2 3 4 6 7 10 12 13 14 15,56.4
2'F-ANA at 1 3 6 7 8 9 10 11 12 13 15,115
2'F-ANA at 1 2 6 8 9 11 12 14 15,64.3
2'F-ANA at 1 2 3 4 6 8 9 10 11 13 14 15,49.9
2'F-ANA at 1 3 5 6 7 9 11,61.7
2'F-ANA at 3 6 8 10 12 14 15,375

# Some of these lines once more (sample 6):
Strand,E-score
CAGGCGCG,-0.28
GCCAGCTA,-0.22
CTGCGGCC,-0.436
AATCGATT,0.149
AACATCCA,-0.00305
TGCCCACA,-0.353
CCACATGC,0.138
AACCCCTA,-0.132
ACAACTTA,0.166
GGAAATTA,0.29
AGCTCATC,-0.223
GATCTTCC,-0.217
GACTTAAA,0.115
CCAGTTGA,-0.146
